Measurements from different studies.
Lines come from different studies, so protocols differ. ± gives the spread as reported.

Structure (SMILES)	assay	test system	conditions	tissue uptake [%ID/g]
CC[C@H](C)[C@H](NC(=O)[C@H](CCCNC(=N)N)NC(=O)[C@H](CCCCN)NC(=O)[C@H](Cc1ccc(O)cc1)NC(=O)[C@H](CC(=O)O)NC(=O)[C@H](C)NC(=O)CNC(=O)CCOCCOCCOCCNC(=O)CN1CCN(CC(=O)O)CCN(CC(=O)O)CCN(CC(=O)O)CC1)C(=O)N[C@H](C(=O)N[C@H](C(=O)N[C@@H](CCCCN)C(=O)N[C@H](C(=O)N[C@@H](CC(N)=O)C(N)=O)C(C)C)C(C)C)[C@@H](C)O [copper-64 labelled]	ex vivo gamma counting	male C57BL/6J mouse, B16-F10 tumour, B16-F10 tumour	intravenous, 1.85 MBq, 40 min	1.79 ± 0.031
CSCC[C@H](NC(=O)CNC(=O)[C@H](CCCCN)NC(=O)[C@H](CC(C)C)NC(=O)[C@@H]1CCCN1C(=O)[C@H](CO)NC(=O)[C@H](Cc1c[nH]cn1)NC(=O)[C@H](Cc1c[nH]c2ccccc12)NC(=O)[C@H](CCCNC(=N)N)NC(=O)[C@H](CC(C)C)NC(=O)[C@H](CCCNC(=N)N)NC(=O)[C@H](Cc1c[nH]c2ccccc12)NC(=O)[C@H](CS)NC(=O)CCCCCNC(=O)CN1CCN(CC(=O)O)CCN(CC(=O)O)CCN(CC(=O)O)CC1)C(=O)O [copper-64 labelled]		BALB/c nude mouse, Huh-7 tumour, lymph node	intravenous, 2 h, ex vivo biodistribution	2.02
CC[C@H](C)[C@H](NC(=O)[C@H](CCCNC(=N)N)NC(=O)[C@H](CCCCN)NC(=O)[C@H](Cc1ccc(O)cc1)NC(=O)[C@H](CC(=O)O)NC(=O)[C@H](C)NC(=O)CNC(=O)CCOCCOCCOCCNC(=O)CN1CCN(CC(=O)O)CCN(CC(=O)O)CCN(CC(=O)O)CC1)C(=O)N[C@H](C(=O)N[C@@H](CC(C)C)C(=O)N[C@@H](CCCCN)C(=O)N[C@H](C(=O)N[C@@H](CC(N)=O)C(N)=O)C(C)C)[C@@H](C)O [copper-64 labelled]	ex vivo gamma counting	male C57BL/6J mouse, B16-F10 tumour, B16-F10 tumour	intravenous, 1.85 MBq, 5 min	5.52 ± 1.35
C[C@H](O)[C@@H](NC(=O)[C@H]1CCCN1C(=O)[C@@H](CCCCN)NC(=O)[C@@H](CO)NC(=O)[C@@H](Cc1ccc(O)cc1)NC(=O)[C@@H](CC(N)=O)NC(=O)CCOCCOCCOCCNC(=O)CN1CCN(CC(=O)O)CCN(CC(=O)O)CCN(CC(=O)O)CC1)C(=O)N[C@H](CC(=O)O)C(=O)N[C@H](CCCNC(=N)N)C(=O)N[C@H](CCC(N)=O)C(=O)N[C@H](Cc1ccc(O)cc1)C(=O)N[C@H](Cc1c[nH]cn1)C(=O)N[C@H](Cc1ccccc1)C(N)=O [copper-64 labelled]	ex vivo gamma counting	C57BL/6J mouse, male, normal, testis	intravenous, 1.85 MBq, 40 min	0.3 ± 0.01
CC[C@H](C)[C@H](NC(=O)[C@H](CCCCN)NC(=O)CNC(=O)[C@H](CC(C)C)NC(=O)[C@H](Cc1ccccc1)NC(=O)[C@H](CCCCN)NC(=O)[C@H](CO)NC(=O)[C@H](Cc1ccccc1)NC(=O)[C@H](Cc1c[nH]c2ccccc12)NC(=O)[C@H](CCC(N)=O)NC(=O)[C@@H](NC(=O)[C@H](Cc1ccccc1)NC(=O)CCCCCNC(=O)CN1CCN(CC(=O)O)CCN(CC(=O)O)CCN(CC(=O)O)CC1)C(C)C)C(=O)N[C@@H](CCC(=O)O)C(=O)N1CCC[C@H]1C(=O)N[C@@H](CC(=O)O)C(=O)N[C@H](C(=O)N[C@@H](CO)C(=O)N[C@@H](CCC(N)=O)C(=O)N[C@H](C(=O)N[C@@H](CCC(N)=O)C(=O)N[C@@H](CC(=O)O)C(=O)N1CCC[C@H]1C(=O)N[C@@H](CC(N)=O)C(=O)N[C@@H](CC(=O)O)C(=O)N[C@@H](CCC(N)=O)C(=O)N[C@@H](Cc1ccc(O)cc1)C(=O)N[C@@H](CCC(=O)O)C(=O)N1CCC[C@H]1C(=O)N[C@@H](Cc1ccccc1)C(=O)O)C(C)C)C(C)C [copper-64 labelled]		C57BL/6 male mouse, tumour-naive, thymus	0.5 h	2.49 ± 0.3
O=C([O-])CN1CCCN2CCN(CCCN(CC(=O)NC(Cc3ccccc3)C(=O)NC(Cc3ccccc3)C(=O)NCCCC[C@H](NC(=O)CCCCCCC(=O)NCCCC[C@H](NC(=O)N[C@@H](CCC(=O)O)C(=O)O)C(=O)O)C(=O)O)CC2)CC1.[64Cu+2] (single isomer, unassigned)		mouse PC-3 flu tumour, PSMA− tumour	2 h	0.26 ± 0.04
CC[C@H](C)[C@H](NC(=O)[C@@H](Cc1c[nH]c2ccccc12)NC(=O)[C@@H]1CCCN1C(=O)[C@H](CCCCN)NC(=O)[C@H](CCCCN)NC(=O)CCNC(=O)CCNC(=O)CN1CCN(CC(=O)O)CCN(CC(=O)O)CCN(CC(=O)O)CC1)C(=O)N[C@@H](C[Si](C)(C)C)C(=O)O [gallium-68 labelled]		nude mouse HT-29 xenograft, bone	90 min	0.35 ± 0.26
CN1Cc2cc(Cl)ccc2-n2c(nnc2C2CCN(c3cccc([18F])n3)CC2)C1		C57BL/6 mouse male, stomach	intravenous, 3.7 MBq, 30 min	14.4 ± 4.55
